Published values gathered from unrelated publications.
Numbered parts are unrelated; each lists some results of a single study.
Chain of UniProt P00519 (whole entry, unmodified, looked up): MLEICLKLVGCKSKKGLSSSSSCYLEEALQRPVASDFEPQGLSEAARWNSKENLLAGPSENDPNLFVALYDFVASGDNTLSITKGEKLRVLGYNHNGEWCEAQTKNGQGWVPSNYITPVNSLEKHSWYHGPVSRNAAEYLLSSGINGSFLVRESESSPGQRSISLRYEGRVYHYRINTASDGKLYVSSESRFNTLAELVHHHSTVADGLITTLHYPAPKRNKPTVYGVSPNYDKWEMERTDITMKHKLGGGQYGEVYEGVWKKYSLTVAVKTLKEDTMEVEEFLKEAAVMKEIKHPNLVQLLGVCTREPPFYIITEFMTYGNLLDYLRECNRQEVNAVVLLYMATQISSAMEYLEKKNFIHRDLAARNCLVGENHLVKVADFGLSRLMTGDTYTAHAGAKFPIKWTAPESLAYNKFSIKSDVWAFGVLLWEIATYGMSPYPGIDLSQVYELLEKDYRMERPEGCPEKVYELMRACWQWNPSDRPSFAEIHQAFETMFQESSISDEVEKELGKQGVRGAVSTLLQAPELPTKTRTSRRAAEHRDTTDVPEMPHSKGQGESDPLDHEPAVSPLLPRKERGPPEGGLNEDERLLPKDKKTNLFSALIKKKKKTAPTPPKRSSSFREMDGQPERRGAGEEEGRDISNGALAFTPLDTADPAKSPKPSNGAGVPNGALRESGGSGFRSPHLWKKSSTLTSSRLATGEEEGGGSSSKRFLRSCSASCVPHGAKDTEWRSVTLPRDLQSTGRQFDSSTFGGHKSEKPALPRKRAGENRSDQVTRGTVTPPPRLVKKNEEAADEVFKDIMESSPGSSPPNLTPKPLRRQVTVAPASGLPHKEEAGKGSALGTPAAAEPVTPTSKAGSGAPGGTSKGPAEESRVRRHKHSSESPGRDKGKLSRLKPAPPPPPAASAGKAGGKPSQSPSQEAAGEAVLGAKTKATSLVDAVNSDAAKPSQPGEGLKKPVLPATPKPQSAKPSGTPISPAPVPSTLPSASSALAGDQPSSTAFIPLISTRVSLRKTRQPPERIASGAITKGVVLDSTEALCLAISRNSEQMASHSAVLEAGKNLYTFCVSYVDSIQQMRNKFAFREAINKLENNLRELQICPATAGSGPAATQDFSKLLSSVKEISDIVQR

Series 1 — organism: Sarcocystis neurona; read-out: parasite growth; tested at: concentration not given; notes: first screen; reference: untreated
SMILES | log2 fold change
C[N+]1(C)CCCC(OC(=O)C(O)(c2ccccc2)c2ccccc2)C1.[Br-] (stereo not shown) | 0.19
CN1[C@@H]2CC[C@H]1C[C@@H](OC(c1ccccc1)c1ccccc1)C2.CS(=O)(=O)O | -0.04
CN1C(C(=O)Nc2ccccn2)=C(O)c2ccccc2S1(=O)=O.O | 0.0319

Series 2 — species: human; sample: microsomes or S9; tested at: 2 µM; time: 0.5 h
SMILES | remaining compound [%]
COc1ccc(Nc2nnc(-c3ccc(C)c(S(=O)(=O)NCc4ccccn4)c3)c3ccccc23)cc1C(N)=O | 1.79
CCCS(=O)(=O)N1CCC(Oc2nccnc2N2CCOCC2)C1 (stereo not shown) | 95.2
Cn1ncc2c1NC(=O)CC2c1cc(Cl)cc2c1OCOC2 (stereo not shown) | 40.1

Series 3 — technique: phase 2a trial; dose: 30 mg once daily
Compound: CC(C)n1cnc(-c2ccc(F)cc2)c1-c1ncc(C(=O)Nc2ccc(N3CCN(C)CC3)cc2)[nH]1
test system | setting | patients with TEAE
patients with idiopathic pulmonary fibrosis | endocrine disorders SOC, grade 3 | 0%
idiopathic pulmonary fibrosis patients | oral, LDL increased, grade 4 | 0%
idiopathic pulmonary fibrosis patients | oral, disc protrusion, grade 4 | 0%

Mixed results
SMILES | target | test | setting | how to read | quantity | value
COc1ccc2c(c1)O[C@@H](c1ccc(OC)c(OC)c1)C[C@H]2NC(=O)C1(c2ccc3c(c2)OC(F)(F)O3)CC1 (single isomer, unassigned) | Tyrosine-protein kinase ABL1 (ABL1, Homo sapiens, UniProt P00519, F317I) | KINOMEscan | 1 µM, F317I mutant, phosphorylated | reference: control | remaining binding | 100%
